Assay results of several laboratories.
Parts stem from different laboratories: compare values within a part only.
Chain of UniProt P53778 (whole entry, looked up): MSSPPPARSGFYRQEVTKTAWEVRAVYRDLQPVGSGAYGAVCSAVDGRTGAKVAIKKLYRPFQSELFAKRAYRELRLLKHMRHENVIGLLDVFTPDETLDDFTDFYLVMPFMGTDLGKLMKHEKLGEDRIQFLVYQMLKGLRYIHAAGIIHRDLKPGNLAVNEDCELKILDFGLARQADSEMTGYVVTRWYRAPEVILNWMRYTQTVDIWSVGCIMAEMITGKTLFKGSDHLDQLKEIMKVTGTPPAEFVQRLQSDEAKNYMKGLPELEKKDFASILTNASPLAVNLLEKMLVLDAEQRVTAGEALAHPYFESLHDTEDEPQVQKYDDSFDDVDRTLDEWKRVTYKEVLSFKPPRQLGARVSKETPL
Chain of UniProt Q02779 (whole entry, looked up): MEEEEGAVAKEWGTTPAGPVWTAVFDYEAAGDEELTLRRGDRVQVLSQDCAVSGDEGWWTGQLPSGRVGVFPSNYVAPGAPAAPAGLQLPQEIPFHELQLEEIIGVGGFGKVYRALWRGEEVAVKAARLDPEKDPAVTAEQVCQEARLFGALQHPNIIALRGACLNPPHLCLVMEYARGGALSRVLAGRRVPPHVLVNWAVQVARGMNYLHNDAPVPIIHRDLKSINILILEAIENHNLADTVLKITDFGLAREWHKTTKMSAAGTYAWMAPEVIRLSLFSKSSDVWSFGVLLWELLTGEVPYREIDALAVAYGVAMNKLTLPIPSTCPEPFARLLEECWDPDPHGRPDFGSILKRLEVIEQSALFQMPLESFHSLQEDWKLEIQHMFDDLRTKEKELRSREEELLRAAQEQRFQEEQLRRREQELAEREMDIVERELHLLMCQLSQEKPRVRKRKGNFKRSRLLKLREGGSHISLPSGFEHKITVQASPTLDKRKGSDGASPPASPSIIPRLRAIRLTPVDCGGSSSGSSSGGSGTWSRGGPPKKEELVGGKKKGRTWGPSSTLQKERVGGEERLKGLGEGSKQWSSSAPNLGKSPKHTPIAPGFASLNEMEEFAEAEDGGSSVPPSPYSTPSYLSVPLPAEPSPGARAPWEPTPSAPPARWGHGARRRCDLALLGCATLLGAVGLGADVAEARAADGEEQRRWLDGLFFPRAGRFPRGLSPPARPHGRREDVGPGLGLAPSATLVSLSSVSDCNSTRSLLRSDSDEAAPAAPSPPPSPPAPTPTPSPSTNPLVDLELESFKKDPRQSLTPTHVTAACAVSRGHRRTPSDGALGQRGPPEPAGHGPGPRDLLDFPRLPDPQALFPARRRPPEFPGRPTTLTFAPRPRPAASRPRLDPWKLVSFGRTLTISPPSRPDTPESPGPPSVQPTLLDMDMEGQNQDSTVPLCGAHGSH
Chain of UniProt P36897 (whole entry, looked up): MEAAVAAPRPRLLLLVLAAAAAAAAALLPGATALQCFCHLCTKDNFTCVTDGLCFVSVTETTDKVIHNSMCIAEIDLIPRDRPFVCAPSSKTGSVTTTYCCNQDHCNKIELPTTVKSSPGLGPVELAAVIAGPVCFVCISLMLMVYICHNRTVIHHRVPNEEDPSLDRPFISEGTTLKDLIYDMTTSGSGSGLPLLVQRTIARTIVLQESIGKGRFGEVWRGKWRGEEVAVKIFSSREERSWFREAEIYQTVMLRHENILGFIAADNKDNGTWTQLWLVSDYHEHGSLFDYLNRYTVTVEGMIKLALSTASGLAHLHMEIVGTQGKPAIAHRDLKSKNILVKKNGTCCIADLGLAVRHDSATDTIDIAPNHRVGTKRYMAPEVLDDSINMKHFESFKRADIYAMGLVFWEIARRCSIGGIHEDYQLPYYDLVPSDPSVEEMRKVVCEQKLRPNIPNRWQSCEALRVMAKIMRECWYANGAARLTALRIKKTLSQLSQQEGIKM
Chain of UniProt Q96RR4 (whole entry, looked up): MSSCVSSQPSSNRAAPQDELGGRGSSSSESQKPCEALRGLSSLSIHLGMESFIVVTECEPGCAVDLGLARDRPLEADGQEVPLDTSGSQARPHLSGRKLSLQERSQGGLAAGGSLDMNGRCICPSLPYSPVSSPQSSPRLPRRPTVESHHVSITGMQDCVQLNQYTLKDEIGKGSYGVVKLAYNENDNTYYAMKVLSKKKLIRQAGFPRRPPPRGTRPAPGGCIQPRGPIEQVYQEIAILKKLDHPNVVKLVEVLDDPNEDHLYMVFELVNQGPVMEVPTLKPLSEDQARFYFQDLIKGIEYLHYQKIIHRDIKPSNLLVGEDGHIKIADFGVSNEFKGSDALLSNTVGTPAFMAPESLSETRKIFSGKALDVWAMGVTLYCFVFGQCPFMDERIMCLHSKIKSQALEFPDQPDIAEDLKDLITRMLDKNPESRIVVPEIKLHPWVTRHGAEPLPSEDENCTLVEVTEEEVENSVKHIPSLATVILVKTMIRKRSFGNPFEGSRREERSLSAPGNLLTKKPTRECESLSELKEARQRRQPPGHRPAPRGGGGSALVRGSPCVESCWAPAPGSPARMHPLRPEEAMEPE
Chain of UniProt P22607 (whole entry, unmodified, looked up): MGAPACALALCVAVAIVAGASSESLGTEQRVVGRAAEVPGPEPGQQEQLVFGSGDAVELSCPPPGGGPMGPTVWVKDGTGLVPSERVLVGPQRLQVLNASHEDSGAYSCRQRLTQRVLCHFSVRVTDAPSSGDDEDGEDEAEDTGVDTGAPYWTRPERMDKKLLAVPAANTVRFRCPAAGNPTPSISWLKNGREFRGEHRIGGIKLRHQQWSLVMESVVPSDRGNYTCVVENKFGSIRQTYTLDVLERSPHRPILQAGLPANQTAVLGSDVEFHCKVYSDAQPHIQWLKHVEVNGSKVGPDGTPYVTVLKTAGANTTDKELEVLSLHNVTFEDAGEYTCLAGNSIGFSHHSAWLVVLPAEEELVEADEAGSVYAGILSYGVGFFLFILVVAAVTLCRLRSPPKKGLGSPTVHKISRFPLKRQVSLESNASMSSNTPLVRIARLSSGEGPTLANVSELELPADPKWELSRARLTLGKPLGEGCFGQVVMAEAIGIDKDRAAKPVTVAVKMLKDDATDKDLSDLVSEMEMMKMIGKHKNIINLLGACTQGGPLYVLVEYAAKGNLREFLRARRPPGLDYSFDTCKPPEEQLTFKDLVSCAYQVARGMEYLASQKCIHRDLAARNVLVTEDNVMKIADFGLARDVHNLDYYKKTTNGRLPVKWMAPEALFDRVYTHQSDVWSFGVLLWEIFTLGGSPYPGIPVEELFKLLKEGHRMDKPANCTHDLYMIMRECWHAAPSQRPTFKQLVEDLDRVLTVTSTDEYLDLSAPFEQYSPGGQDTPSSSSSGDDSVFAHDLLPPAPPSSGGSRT
Chain of UniProt O94804 (whole entry, looked up): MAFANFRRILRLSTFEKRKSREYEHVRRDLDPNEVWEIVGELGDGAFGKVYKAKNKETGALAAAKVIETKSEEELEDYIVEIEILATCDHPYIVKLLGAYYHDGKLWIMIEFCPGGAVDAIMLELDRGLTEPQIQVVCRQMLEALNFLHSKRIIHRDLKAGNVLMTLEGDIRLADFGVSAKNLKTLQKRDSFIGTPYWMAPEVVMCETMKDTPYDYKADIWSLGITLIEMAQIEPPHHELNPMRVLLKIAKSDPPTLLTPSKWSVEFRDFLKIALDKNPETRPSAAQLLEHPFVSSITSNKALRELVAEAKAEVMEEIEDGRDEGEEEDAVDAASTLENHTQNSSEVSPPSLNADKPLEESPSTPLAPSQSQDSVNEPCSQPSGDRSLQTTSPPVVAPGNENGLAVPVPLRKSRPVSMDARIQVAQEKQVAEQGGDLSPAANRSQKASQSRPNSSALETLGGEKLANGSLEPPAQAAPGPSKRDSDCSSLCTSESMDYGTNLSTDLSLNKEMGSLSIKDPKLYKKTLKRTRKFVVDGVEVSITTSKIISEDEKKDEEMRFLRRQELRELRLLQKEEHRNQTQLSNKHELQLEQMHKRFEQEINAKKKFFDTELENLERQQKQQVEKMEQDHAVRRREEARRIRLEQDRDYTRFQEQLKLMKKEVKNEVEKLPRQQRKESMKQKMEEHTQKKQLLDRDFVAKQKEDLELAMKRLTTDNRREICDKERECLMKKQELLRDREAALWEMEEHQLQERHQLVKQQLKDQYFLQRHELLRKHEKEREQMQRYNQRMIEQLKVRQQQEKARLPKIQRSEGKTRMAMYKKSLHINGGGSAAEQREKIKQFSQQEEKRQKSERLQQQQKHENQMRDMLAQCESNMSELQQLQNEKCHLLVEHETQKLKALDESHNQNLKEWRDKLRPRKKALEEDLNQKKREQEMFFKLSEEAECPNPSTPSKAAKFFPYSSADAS
Chain of UniProt P46734 (whole entry, looked up): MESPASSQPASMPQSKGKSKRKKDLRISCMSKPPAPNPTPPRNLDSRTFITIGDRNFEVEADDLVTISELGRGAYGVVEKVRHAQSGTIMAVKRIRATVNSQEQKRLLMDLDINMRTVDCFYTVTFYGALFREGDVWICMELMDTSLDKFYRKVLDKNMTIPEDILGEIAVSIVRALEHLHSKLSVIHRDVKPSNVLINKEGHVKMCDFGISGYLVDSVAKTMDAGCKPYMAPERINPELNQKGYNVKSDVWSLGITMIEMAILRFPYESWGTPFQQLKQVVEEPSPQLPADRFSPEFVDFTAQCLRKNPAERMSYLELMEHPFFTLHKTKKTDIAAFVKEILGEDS

Series 1
SMILES: CCCCc1c(-c2ccc(O)cc2)[nH]c2nccnc12
Effect on: enzyme activity
Action: inhibitor
Concentration: 0.5 µM
Relative to: control
The remaining activity was 95.5% (OXSR1 (Homo sapiens, UniProt O95747)).
STK10 (Homo sapiens, UniProt O94804) — remaining activity: 82.8%.
The remaining activity was 88.8% (cGMP-dependent protein kinase 1, isoform beta (PRKG1, Homo sapiens, UniProt Q13976)).
STK11 (Homo sapiens, UniProt Q15831) — remaining activity: 33.5%.
The remaining activity was 100% (TGFBR1 (Homo sapiens, UniProt P36897)).
The remaining activity was 91.7% (CAMKK2 (Homo sapiens, UniProt Q96RR4)).
It gave 106% for remaining activity (Tyrosine-protein kinase Lyn, isoform B (LYN, Homo sapiens, UniProt P07948)).
The remaining activity was 96.2% (GRK3 (Homo sapiens, UniProt P35626)).
For NEK2 (Homo sapiens, UniProt P51955): remaining activity read 106%.
The remaining activity was 127% (MAP3K3 (Homo sapiens, UniProt Q99759)).
It gave 76.1% for remaining activity (STK39 (Homo sapiens, UniProt Q9UEW8)).
TGFBR2 (Homo sapiens, UniProt P37173) — remaining activity: 55%.
IKBKE (Homo sapiens, UniProt Q14164) — remaining activity: 88.3%.
MAPK9 (Homo sapiens, UniProt P45984) — remaining activity: 90.2%.
It gave 103% for remaining activity (IKBKB (Homo sapiens, UniProt O14920)).
DAPK2 (Homo sapiens, UniProt Q9UIK4) — remaining activity: 101%.
The remaining activity was 61.1% (CHEK2 (Homo sapiens, UniProt O96017)).
For PRKCA (Homo sapiens, UniProt P17252): remaining activity read 83.7%.
It gave 66.4% for remaining activity (Cyclin-dependent kinase 4, with cyclin D1 (CDK4, Homo sapiens, UniProt P11802)).
For DAPK1 (Homo sapiens, UniProt P53355): remaining activity read 85.3%.
The remaining activity was 89.7% (PRKACA (Homo sapiens, UniProt P17612)).
It gave 87.3% for remaining activity (CAMK2D (Homo sapiens, UniProt Q13557)).
For Protein kinase C beta type, isoform beta-I (PRKCB, Homo sapiens, UniProt P05771): remaining activity read 95.5%.

Series 2
Structure (SMILES): CC[C@H](C)c1nc2cc(Nc3ccnc4ccc(S(=O)(=O)C(C)C)cc34)ccc2s1
Target: Receptor-interacting serine/threonine-protein kinase 3 (RIPK3, Homo sapiens, UniProt Q9Y572)
Chain of UniProt Q9Y572 (whole entry, looked up): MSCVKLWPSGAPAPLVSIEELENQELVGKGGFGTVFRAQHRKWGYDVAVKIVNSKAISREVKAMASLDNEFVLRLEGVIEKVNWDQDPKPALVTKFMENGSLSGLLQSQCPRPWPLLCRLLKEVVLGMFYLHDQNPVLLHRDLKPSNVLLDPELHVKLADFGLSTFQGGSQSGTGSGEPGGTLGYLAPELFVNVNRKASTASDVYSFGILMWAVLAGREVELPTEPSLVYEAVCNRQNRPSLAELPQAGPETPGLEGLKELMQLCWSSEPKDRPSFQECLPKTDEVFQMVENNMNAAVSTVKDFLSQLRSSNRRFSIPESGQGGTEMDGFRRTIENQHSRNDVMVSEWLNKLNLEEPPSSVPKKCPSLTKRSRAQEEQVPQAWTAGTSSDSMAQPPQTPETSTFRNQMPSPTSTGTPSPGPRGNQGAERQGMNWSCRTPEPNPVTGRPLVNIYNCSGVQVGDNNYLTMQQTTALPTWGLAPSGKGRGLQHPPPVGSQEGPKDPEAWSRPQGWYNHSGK
Effect on: kinase activity
Action: inhibitor
Technique: ADP-Glo
Time: 1 h
For 25 nM: inhibition read 91.7%.
For 6.25 nM: inhibition read 41.2%.
It gave 26% for inhibition (0.391 nM).
1.563 nM — inhibition: 26.8%.
100 nM — inhibition: 105%.
50 nM — inhibition: 95.2%.
12.5 nM — inhibition: 68.1%.

Series 3
Species: human
Matrix: microsomes or S9
Concentration: 2 µM
Time: 0.5 h
`O=C1CCCC1CC/C=C/S(=O)(=O)c1ccccc1` (stereo not shown) has a remaining compound of 40.8%.
The remaining compound of `C[S+]([O-])c1nn(-c2ccc(Cl)c(Cl)c2)c(-c2ccc(Cl)c(Cl)c2)c1-n1ccnc1` (stereo not shown) is reported as 2.22%.
For `CCN(C(=O)c1cc(C)c(C)[nH]c1=O)[C@H]1COC[C@@H]1O`, the remaining compound was 100%.
The remaining compound of `CCCc1nc(C(=O)N2C[C@@H](CN3C[C@@H](C)O[C@@H](C)C3)[C@@H](CO)C2)cs1` is reported as 69.6%.
`CS(=O)(=O)NCCOc1ccccc1-c1ccccc1` gave a remaining compound of over 99%.
With `COC(=O)c1ccc(-c2noc(C(C)C)n2)cc1Cl` the remaining compound was 0%.
For `CN1N=C(c2ccc(-n3cncn3)cc2)CC1c1cnn(C)c1` (stereo not shown), the remaining compound was 96.9%.
For `COc1cc(=O)n2c(c1C(=O)NC1CCCCCC1)CCCC2`, the remaining compound was 58.9%.
`CC(C)(C)n1cc(/C=C/c2ncc(Br)s2)nn1` gave a remaining compound of 90.1%.

Series 4
SMILES: CCc1ccccc1C(=O)Nc1n[nH]c2c(C)c(F)c(C3C(C#N)=C(C)N(C)C(C)=C3C#N)cc12
Effect on: cell-free assay
Technique: competition with immobilised ligand
Concentration: 1 µM
The remaining binding was 74% (FGFR3 (Homo sapiens, UniProt P22607, G697C)).
The remaining binding was 81% (CASK (Homo sapiens, UniProt O14936)).
For MAPK12 (Homo sapiens, UniProt P53778): remaining binding read 76%.
For ACVR1 (Homo sapiens, UniProt Q04771): remaining binding read 100%.
PRKD2 (Homo sapiens, UniProt Q9BZL6) — remaining binding: 87%.
For MAPK10 (Homo sapiens, UniProt P53779): remaining binding read 92%.
For MAP3K10 (Homo sapiens, UniProt Q02779): remaining binding read 100%.
EPHB4 (Homo sapiens, UniProt P54760) — remaining binding: 51%.
It gave 80% for remaining binding (RPS6KB1 (Homo sapiens, UniProt P23443)).
The remaining binding was 100% (MAP2K5 (Homo sapiens, UniProt Q13163)).
For CDK16 (Homo sapiens, UniProt Q00536): remaining binding read 100%.
The remaining binding was 40% (NUAK2 (Homo sapiens, UniProt Q9H093)).
For GRK7 (Homo sapiens, UniProt Q8WTQ7): remaining binding read 54%.
For Non-receptor tyrosine-protein kinase TYK2, JH2 (TYK2, Homo sapiens, UniProt P29597): remaining binding read 100%.
For Tyrosine-protein kinase JAK1, JH1 (JAK1, Homo sapiens, UniProt P23458): remaining binding read 97%.
It gave 86% for remaining binding (PDPK1 (Homo sapiens, UniProt O15530)).
The remaining binding was 92% (MAP3K9 (Homo sapiens, UniProt P80192)).
PIK3CA (Homo sapiens, UniProt P42336, C420R) — remaining binding: 100%.
CDK3 (Homo sapiens, UniProt Q00526) — remaining binding: 88%.
It gave 96% for remaining binding (COQ8B (Homo sapiens, UniProt Q96D53)).
It gave 74% for remaining binding (SIK3 (Homo sapiens, UniProt Q9Y2K2)).
It gave 86% for remaining binding (MAPK7 (Homo sapiens, UniProt Q13164)).
The remaining binding was 97% (MAP2K3 (Homo sapiens, UniProt P46734)).
CLK3 (Homo sapiens, UniProt P49761) — remaining binding: 100%.
TSSK3 (Homo sapiens, UniProt Q96PN8) — remaining binding: 100%.

A few entries again (series 2):
For 25 nM: inhibition read 91.7%.
For 6.25 nM: inhibition read 41.2%.
It gave 26% for inhibition (0.391 nM).
1.563 nM — inhibition: 26.8%.
100 nM — inhibition: 105%.
50 nM — inhibition: 95.2%.
12.5 nM — inhibition: 68.1%.
